Assay results pooled from the literature.
A part holds a random share of what one study measured. Positions count from the first letter of the parent shown.

Sample 1
Target: UDP-N-acetylglucosamine--peptide N-acetylglucosaminyltransferase 110 kDa subunit (OGT, Homo sapiens, UniProt O15294)
Chain of UniProt O15294 (whole entry, looked up): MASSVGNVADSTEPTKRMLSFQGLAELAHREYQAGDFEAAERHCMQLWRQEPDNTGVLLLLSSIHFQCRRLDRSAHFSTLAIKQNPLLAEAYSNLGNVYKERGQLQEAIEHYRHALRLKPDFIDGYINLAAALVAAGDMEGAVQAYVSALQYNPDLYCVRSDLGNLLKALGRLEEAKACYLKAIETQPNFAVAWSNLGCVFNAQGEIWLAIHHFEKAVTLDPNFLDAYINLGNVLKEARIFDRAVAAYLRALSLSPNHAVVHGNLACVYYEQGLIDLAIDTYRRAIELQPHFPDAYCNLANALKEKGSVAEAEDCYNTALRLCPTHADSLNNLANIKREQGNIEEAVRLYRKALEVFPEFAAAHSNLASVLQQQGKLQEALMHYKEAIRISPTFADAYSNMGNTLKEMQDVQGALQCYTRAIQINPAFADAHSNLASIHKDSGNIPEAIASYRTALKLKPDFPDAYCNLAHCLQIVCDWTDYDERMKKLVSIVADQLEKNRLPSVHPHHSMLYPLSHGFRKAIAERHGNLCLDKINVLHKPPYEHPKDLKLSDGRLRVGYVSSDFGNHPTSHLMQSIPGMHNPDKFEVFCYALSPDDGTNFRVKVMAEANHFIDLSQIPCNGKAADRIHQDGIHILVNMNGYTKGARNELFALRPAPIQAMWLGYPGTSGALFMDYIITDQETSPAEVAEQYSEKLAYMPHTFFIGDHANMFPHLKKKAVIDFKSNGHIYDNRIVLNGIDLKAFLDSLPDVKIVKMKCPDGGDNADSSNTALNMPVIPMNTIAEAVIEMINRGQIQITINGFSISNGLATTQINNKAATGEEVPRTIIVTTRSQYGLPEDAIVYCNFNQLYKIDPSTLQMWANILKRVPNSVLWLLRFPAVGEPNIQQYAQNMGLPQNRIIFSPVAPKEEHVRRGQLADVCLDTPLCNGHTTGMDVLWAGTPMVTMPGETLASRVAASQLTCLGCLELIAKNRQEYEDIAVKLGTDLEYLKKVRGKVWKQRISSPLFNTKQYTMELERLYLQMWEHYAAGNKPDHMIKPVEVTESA
Read-out: binding
Method: phage display NGS
Form: peptide
Tested at: concentration not given
Baseline: input library
Molecule | enrichment fold change
QQIPSIMPMYQIVTP | 11.7
HQYHHFRDNYNQIFM | 10.7
HQQLVHGAWHHPIT | 5.68
THTHFYWQPHHRGV | 6.31
GISDGMYMPWYKIRT | 2.27
GGGHVMHHYYDKHNP | 2.47
HREQHDMTYHMIHSR | 4.57
RHPHEHDLHDVITHA | 9.06

Sample 2
Target: CCNA1, cyclin fold, Cln2 fusion (human)
Method: yeast growth competition, sequencing
Sample: yeast
Notes: strong parent motif
Baseline: not given
Direction: higher = stronger binding
Parent: viral docking peptide; YKVKRRLVFGADD; partner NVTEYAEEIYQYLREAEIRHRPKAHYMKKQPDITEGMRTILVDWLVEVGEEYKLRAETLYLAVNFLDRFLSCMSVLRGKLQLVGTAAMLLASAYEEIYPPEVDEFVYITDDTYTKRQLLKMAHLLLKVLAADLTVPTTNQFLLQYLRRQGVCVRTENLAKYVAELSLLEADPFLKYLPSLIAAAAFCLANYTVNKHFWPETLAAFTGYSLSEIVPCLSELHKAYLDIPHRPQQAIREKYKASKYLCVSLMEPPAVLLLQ
Change | normalised enrichment score
R6K | 1.26
F9T | 0.538
A11P | 1.58
K2P | 1.47
K4E | -0.323
V8N | 1.44
V8I | 0.799
V3H | 0.0892

Sample 3
Target: vanadate, free oxyanion
Method: microfluidic competitive inhibition
Sample: in vitro, cell-free expressed
Tested at: not given
Notes: derived from inhibition constants, unchanged parent 676 nM
Direction: lower = stronger binding
Parent: PafA, mature enzyme, eGFP fusion (Elizabethkingia meningoseptica, UniProt Q9KJX5); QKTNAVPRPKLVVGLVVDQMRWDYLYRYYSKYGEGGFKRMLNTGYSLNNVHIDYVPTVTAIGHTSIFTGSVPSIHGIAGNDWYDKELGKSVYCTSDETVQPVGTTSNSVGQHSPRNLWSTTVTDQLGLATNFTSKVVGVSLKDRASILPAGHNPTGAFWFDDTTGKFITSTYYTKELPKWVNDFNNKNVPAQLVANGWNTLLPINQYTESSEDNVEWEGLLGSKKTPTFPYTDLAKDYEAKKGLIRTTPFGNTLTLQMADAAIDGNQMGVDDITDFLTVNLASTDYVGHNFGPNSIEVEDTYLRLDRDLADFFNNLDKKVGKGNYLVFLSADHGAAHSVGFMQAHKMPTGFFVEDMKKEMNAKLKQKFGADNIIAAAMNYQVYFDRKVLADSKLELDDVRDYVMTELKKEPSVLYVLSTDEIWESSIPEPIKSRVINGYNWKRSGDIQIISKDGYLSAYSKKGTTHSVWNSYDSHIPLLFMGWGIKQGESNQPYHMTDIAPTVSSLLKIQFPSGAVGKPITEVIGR
Change | oxyanion analog dissociation constant [nM]
T171V | 626
Y28V | 823
G369A | 732
R443G | 2730
D237G | 327
I245G | 611
P230G | 548
F313G | 561

Single results of other studies
Compound | cell line | tested at | time | baseline | quantity | value
C[C@H]1O[C@H](O[C@H]2[C@H](O)[C@@H](O)[C@@H](O[C@H]3[C@H](O)[C@@H](O)C(O)O[C@@H]3CO)O[C@@H]2CO)[C@H](O)[C@@H](O)[C@@H]1N[C@H]1C=C(CO)[C@@H](O)[C@H](O)[C@H]1O (stereo partly shown) | HEK-293T/ACE2 | concentration not given | 16 (unit not given) | vehicle | viability | 103%
